Experimental data collected from several papers.
± marks the error that the study gave.

C[C@H]1OC[C@H](c2ccc(-c3ccccn3)cc2)N[C@@H]1c1ccc(F)cc1Cl
solubility (shake-flask, LC-HRMS; aqueous buffer; 16 h, pH 6.8): < 4 µM

COc1cc(OC)c2c(=O)cc(-c3ccccc3)oc2c1
solubility (HPLC; ethanol:butylene glycol 50:50): 13860 ± 31 ppm

Cc1cc(C)c(S(=O)(=O)N(C)CC(=O)N2CCC(C(N)=O)CC2)c(C)c1
solubility (aqueous buffer; pH 7.4): 299 µg/mL

Cn1cc([C@@H]2COC[C@](C)(c3ccccc3)N2)cn1
solubility (shake-flask, LC-HRMS; aqueous buffer; 16 h, pH 6.8): > 750 µM

Clc1nc(SCc2ccccc2)c2[nH]cnc2n1
solubility (UV absorbance; culture medium; stock diluted to 0.067 mM): 16.5 µM

Cn1nc([N+](=O)[O-])nc1Oc1ccccc1C(=O)N1CCOCC1
solubility (aqueous buffer; pH 7.4): 1640 µg/mL

CCOC(=O)N1C[C@@H](c2ccc(Cl)cc2)N[C@@H](c2ccc(C(=O)OC)cc2)C1
solubility (shake-flask, LC-HRMS; aqueous buffer; 16 h, pH 6.8): < 4 µM

CN1CCN(C(=O)CN(c2cc(C(F)(F)F)ccc2Cl)S(=O)(=O)c2ccccc2)CC1
solubility (aqueous buffer; pH 7.4): 14.3 µg/mL

Cc1cc(/C=C/C#N)cc(C)c1Nc1ccnc(Nc2ccc(C#N)cc2)n1
solubility (Capmul MCM C8; 24 h, 37 °C): 1710 ± 160 µg/mL

O=S(=O)(c1ccc(-c2ccc3nccc(Nc4cnccn4)c3c2)cc1)N1CCOCC1
solubility (thermodynamic; aqueous medium): 1 µM

CCOC(=O)N1C[C@@H](C2CCOCC2)N[C@@H](C(CC)CC)C1
solubility (shake-flask, LC-HRMS; aqueous buffer; 16 h, pH 6.8): > 750 µM

CCCS(=O)(=O)Nc1ccc(F)c(C(=O)c2cn(C(=O)OCc3cc(P(=O)(O)O)ccc3OP(=O)(O)O)c3ncc(-c4ccc(Cl)cc4)cc23)c1F
solubility (HPLC, saturated solution; simulated gastric fluid; 30 s, pH 1.2): 660 µg/mL

CCOC(=O)N1C[C@@H](c2cc(Cl)cc(Cl)c2)N[C@@H](c2ccc(N3CCCC3)cc2)C1
solubility (shake-flask, LC-HRMS; aqueous buffer; 16 h, pH 6.8): < 4 µM

CN1CCc2ccc(/C=C/c3ccc4cc(C(=N)N)ccc4c3)cc2C1C1CCCCC1 (stereo not shown)
solubility (aqueous buffer; pH 7.4): 194 µg/mL

CN(Cc1ccc(C(C)(C)C)cc1)Cc1cccc2ccccc12
solubility (PBS; pH 7.4, 25 °C, 2% DMSO): 10 µM

CC(C)Nc1ccnc(Nc2cccc(-c3nccs3)c2)n1
solubility (citrate phosphate-buffered saline; 18 h, pH 7.4, 1% DMSO): 29.6 ± 5.1 µM

CCc1nnc(NS(=O)(=O)c2ccc(NC(=O)c3ccc(F)cc3)cc2)s1
solubility (aqueous buffer; pH 7.4): 370 µg/mL

O=c1c2ccccc2oc2ccccc12
solubility (tricaprin-tricaprylin mixture; 30 °C, tricaprin fraction 0.77): 0.0387 mole fraction

NC[C@H](NC(=O)[C@@H](Cc1c[nH]c2ccccc12)NC(=O)OCC1c2ccccc2-c2ccccc21)C(=O)N[C@@H](CCCCNC(=O)CN1CCN(CC(=O)O)CCN(CC(=O)O)CCN(CC(=O)O)CC1)C(N)=O
solubility (water): ≥ 5000 µM

c1ccc(-c2ccc([C@H]3COC[C@@H](c4ccc(-n5cncn5)cc4)N3)cc2)cc1
solubility (shake-flask, LC-HRMS; aqueous buffer; 16 h, pH 6.8): < 4 µM

COc1ccc(NC(=O)CSc2nnc(-c3ccncc3)[nH]2)cc1
solubility (aqueous buffer; pH 7.4): 3.54 µg/mL

Cc1ccc([C@H]2N[C@@H](c3ccc(Cl)c(Cl)c3)CO[C@@H]2C)cc1
solubility (shake-flask, LC-HRMS; aqueous buffer; 16 h, pH 6.8): < 4 µM

O=S(=O)(NCc1ccccn1)c1ccc(Cl)c(Cl)c1Cl
solubility (aqueous buffer; pH 7.4): 10.7 µg/mL

CCOC(=O)N1C[C@@H](c2cccc(Br)c2)N[C@@H](c2ccc(N3CCCC3)cc2)C1
solubility (shake-flask, LC-HRMS; aqueous buffer; 16 h, pH 6.8): < 4 µM

COC1=CC(c2ccc[nH]2)=N/C1=C\c1[nH]c(Cc2ccc(OC(F)(F)F)cc2)cc1Cc1ccc(OC(F)(F)F)cc1
solubility (potassium phosphate buffer; 1.5 h, pH 7.4, room temperature): < 3.13 µM

Repeated from above:
CCOC(=O)N1C[C@@H](c2ccc(Cl)cc2)N[C@@H](c2ccc(C(=O)OC)cc2)C1
solubility (shake-flask, LC-HRMS; aqueous buffer; 16 h, pH 6.8): < 4 µM

CN1CCN(C(=O)CN(c2cc(C(F)(F)F)ccc2Cl)S(=O)(=O)c2ccccc2)CC1
solubility (aqueous buffer; pH 7.4): 14.3 µg/mL

Cc1cc(/C=C/C#N)cc(C)c1Nc1ccnc(Nc2ccc(C#N)cc2)n1
solubility (Capmul MCM C8; 24 h, 37 °C): 1710 ± 160 µg/mL

O=S(=O)(c1ccc(-c2ccc3nccc(Nc4cnccn4)c3c2)cc1)N1CCOCC1
solubility (thermodynamic; aqueous medium): 1 µM
